{"data": "Results from different studies", "note": "Parts stem from different laboratories: compare values within a part only."}
{"data": "Series 1", "target": "Interferon regulatory factor 5, full length, phosphomimetic (IRF5, Homo sapiens, UniProt Q13568-2, residues 1-514, S451D/S453D/S456D/S462D)", "technique": "protein-binding microarray", "molecule type": "double-stranded DNA, one strand shown", "matrix": "in vitro", "tested at": "940 nM top", "notes": "60-bp whole probe", "together with": "salmon DNA 0.4 mg/ml", "baseline": "random background probes", "reading": "higher = stronger binding", "all sequences stand within": "GCCTAGCAC … GTCTTGATTCGCTTGACGCTGCTG"}
{"Sequence": "TCAGATATAGGATAACGAGCCGTGCTA", "fitted relative affinity [z-score]": -0.426}
{"Sequence": "GACGGTATAGGTATCGGGACGTGCTAG", "fitted relative affinity [z-score]": 0.875}
{"Sequence": "GAAGATATCAGTTTCGAGACGTGCTAG", "fitted relative affinity [z-score]": 3.55}
{"Sequence": "TAAGGACTGGGGTATCGGTTAGTGCTA", "fitted relative affinity [z-score]": 2.51}
{"Sequence": "TTAGGTTCCGGTTTCGGATAGTGCTAG", "fitted relative affinity [z-score]": 6.07}
{"Sequence": "TTAGGTTTCGGCATCGGTTAGTGCTAG", "fitted relative affinity [z-score]": 9.57}
{"data": "Series 2", "target": "RNA binding protein fox-1 homolog 2, RRM domain, GST-SBP tag (RBFOX2, Homo sapiens, UniProt O43251-10, residues 100-194)", "technique": "RNA Bind-n-Seq", "molecule type": "RNA", "matrix": "in vitro", "tested at": "365 nM", "notes": "natural RNA segment, single round, ends assumed", "baseline": "no-protein control", "reading": "higher = stronger binding", "Residues (chain)": "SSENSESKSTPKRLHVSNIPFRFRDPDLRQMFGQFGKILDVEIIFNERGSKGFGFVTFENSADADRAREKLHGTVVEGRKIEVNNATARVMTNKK"}
{"Sequence": "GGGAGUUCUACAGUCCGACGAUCUAGUUUUAGAAUAAUAUUUCUUCGGCAAACCCUGCUAACUGCGGUUCACCCUUGAAAACGUUAAUCUGAGGACUUUUUCCACCAACUCAUUAAUGAUGGUGGAAGCAAGUUGGAAUUCUCGGGUGCCAA", "RBNS enrichment (R)": 0.273}
{"Sequence": "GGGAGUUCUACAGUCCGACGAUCUCCUCACCGCACGGCACAUCUGAGAGAUGGACCCUGGCAGAGCUCCUGAGAGUGUGAGGUCAUCAGAACCCACCUGCCACUGAGGCCAGUGAAGGUCUCAGACCAAGGGGUGGAAUUCUCGGGUGCCAA", "RBNS enrichment (R)": 2.17}
{"Sequence": "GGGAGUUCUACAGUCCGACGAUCGGAACUAGCCUUGUGUCUAUGAGGGCACCCUUCAGCUCACUCCACCCCCCAGGUAGACAGGUGCAUUUUGACCCUUCUGGACAGAAGAAACAAUGUGUUUUCCACCCCACUGGAAUUCUCGGGUGCCAA", "RBNS enrichment (R)": 0.661}
{"Sequence": "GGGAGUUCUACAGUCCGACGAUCGAAGAGGUAUGUGAGACCCAGUUCAACGACAGCAUGAUUUUUUAAAUGGCUGUAAGUUAUGAUAAGGAAAUGUACUGAUUGCCAGUGCACUCCACCCUCAUUACGUCACCUGGAAUUCUCGGGUGCCAA", "RBNS enrichment (R)": 0.594}
{"Sequence": "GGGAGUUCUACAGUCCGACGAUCUACCUUUUGGGAUGAUUGCUCGAUUGUUUGGUUUUUAAAUCUGAGAAGCCUAGAUAACUAAUCUGCUUUUAAUCACGAUGUUUUAAUCUACCUCUGUCUCUUUAACCAUGUGGAAUUCUCGGGUGCCAA", "RBNS enrichment (R)": 0.353}
{"Sequence": "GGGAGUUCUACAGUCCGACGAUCUCCUCGUGCACAGAAAUGCUCAGGGUCCCCAUGUGCCUGUUGUUCAGCCCUCUCUCUUGUUCCCUUUCUGAGCAUGUGGUCCUUCCCCAGGCUGUGGGACAGCUGCCUUCUGGAAUUCUCGGGUGCCAA", "RBNS enrichment (R)": 2.23}
{"data": "Other studies, line by line"}
{"Substance": "RAB8A (Homo sapiens, UniProt P61006)", "tested on": "RIPOR2 (Homo sapiens, UniProt Q9Y4F9)", "assay": "cross-linking MS", "system": "cell fractions", "setting": "together with: DMTMM", "quantity": "cross-linked residues", "result": "K153 to D154"}
{"Substance": "PhoQ, residues 284 288 289 292 302 303 SSTLLI", "tested on": "PhoP, residues 12 14 15 18 19 AGCRL (Escherichia coli, UniProt P23836)", "assay": "Sort-seq, refers to: YFP reporter", "system": "E. coli", "setting": "PhoQ-PhoP variant library, together with: 10 µM Mg2+", "scale": "baseline: high Mg2+ state, higher = stronger signaling", "quantity": "fold induction", "result": 10.3}
